Measurements from different studies.
Numbered parts are unrelated; each lists some results of a single study. Substitutions count along the parent as printed.

Set 1
Target: Interferon regulatory factor 5, full length, phosphomimetic (IRF5, Homo sapiens, UniProt Q13568-2, residues 1-514, K96S/S451D/S453D/S456D/S462D)
Technique: protein-binding microarray
Molecule type: double-stranded DNA, one strand shown
Matrix: in vitro
Concentration: 250 nM
Setting: 60-bp whole probe
With: salmon DNA 0.4 mg/ml
Baseline: random background probes
Direction: higher = stronger binding
Constant ends, left off below: GCCTAGCAC … GTCTTGATTCGCTTGACGCTGCTG
`GACGGTCTCCCTATCCTGACGTGCTAG` gave a log fluorescence of -0.187 z-score.
`TTACGACTGGGGACTGGGTTAGTGCTA` has a log fluorescence of 0.218 z-score.
The log fluorescence of `TCATTTCTAATATTCTGACTGTGCTAG` is reported as 1.04 z-score.
`GACGGTATAGGTCTCGGGACGTGCTAG` gave a log fluorescence of -0.259 z-score.
The log fluorescence of `CTAGGTCTCGGTTTCGGTTAGTGCTAG` is reported as 8.64 z-score.
With `GACTGTATCCTTCTCCTGACGTGCTAG` the log fluorescence was 0.274 z-score.
`TTTGGACTGGACTTTCGGTTAGTGCTA` has a log fluorescence of 9.58 z-score.
`CTGGAGAGACGGAGTCTCCAGTGCTAG` has a log fluorescence of -0.57 z-score.

Set 2
Target: CCND3, cyclin fold, Cln2 fusion (human)
Technique: yeast growth competition, sequencing
Matrix: yeast
Setting: weak parent motif
Baseline: not given
Direction: higher = stronger binding
Starting sequence: CDKN1A docking peptide (human); SKACRRLFGPVDS; partner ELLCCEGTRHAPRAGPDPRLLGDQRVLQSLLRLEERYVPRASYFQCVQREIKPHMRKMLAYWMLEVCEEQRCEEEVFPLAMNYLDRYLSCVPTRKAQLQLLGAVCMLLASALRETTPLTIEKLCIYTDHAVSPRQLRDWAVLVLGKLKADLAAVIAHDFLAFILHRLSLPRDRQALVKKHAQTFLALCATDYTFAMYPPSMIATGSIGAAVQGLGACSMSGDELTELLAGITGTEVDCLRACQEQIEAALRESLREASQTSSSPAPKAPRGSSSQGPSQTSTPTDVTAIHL
`F8I`: “normalised enrichment score” 0.288.
`F8P` — result for “normalised enrichment score”: 0.107.
`R6I`: “normalised enrichment score” 0.293.
For `V11L`, “normalised enrichment score” read 0.343.

Set 3
Target: RNA binding protein fox-1 homolog 2, RRM domain, GST-SBP tag (RBFOX2, Homo sapiens, UniProt O43251-10, residues 100-194)
Technique: RNA Bind-n-Seq
Molecule type: RNA
Matrix: in vitro
Concentration: 365 nM
Setting: natural RNA segment, single round, ends assumed
Baseline: no-protein control
Direction: higher = stronger binding
Under “RBNS enrichment (R)”, `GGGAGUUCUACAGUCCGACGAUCAGGAAACGUCCCUAGGUAGGCUUGGUCAUUUGUGGGUUUUUCCCAGGCCUGACGUUAAGAAUGGUGAGUGCAUAGGCAGAAUGAGGCCUGAAUAAAGAUGGGCUCUGAAAUGGAAUUCUCGGGUGCCAA` is recorded as 3.13.
`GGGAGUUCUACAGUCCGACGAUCUUAGGGUGCUAUGGAAAUAAUGAAAAGAAACGGGGAUUUCAGAAGAAAAUUGUAACCAAAUUCAUACUUUGUAUAAUUUUUGAUAUCAUGAUCACAGGUGAUUCACACGUUGGAAUUCUCGGGUGCCAA` — result for “RBNS enrichment (R)”: 0.803.
`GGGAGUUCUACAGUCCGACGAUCUAAACUGUCCUGGGCAGAAGUCUUCUCUGGUGCCCUUCUCCCAUCCUCCAGCCCUUCACUUCCCACUGAGGUUGUCUCUUUACUGCCUGGCAUGACAUCUAAAAGCUCACUGGAAUUCUCGGGUGCCAA` — result for “RBNS enrichment (R)”: 1.01.
`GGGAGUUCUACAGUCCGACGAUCCUGUUAAGUCCCAAGUCCGUCAUGGGGUCAGGUUACACCCAGAGGUGUUUUCACUGUGGGGUUCCAGGGAGGCUGGGGAGAAUGGGCAGAGCCCAGGGUUCCAUCUCACCUGGAAUUCUCGGGUGCCAA`: “RBNS enrichment (R)” 0.459.
For `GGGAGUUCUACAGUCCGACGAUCUUCUAAAUAUACAAGGAAUUCUUUAAAUAGAGAAAAAGGUUAAUCCUCACUGAAACACCAGGAUGCCCACUGGAUAUACUAAUCUGAACAUCUGUAGGUAGUUUGUCAUGUGGAAUUCUCGGGUGCCAA`, “RBNS enrichment (R)” read 0.612.

Other studies, line by line
For `PhoQ, residues 284 288 289 292 302 303 TGYLSA`, the fold induction was 12.5 (PhoP, residues 12 14 15 18 19 HLGGL (Escherichia coli, UniProt P23836); Sort-seq, measured: YFP reporter; E. coli; PhoQ-PhoP variant library, with: 10 µM Mg2+; baseline: high Mg2+ state, higher = stronger signaling).
